Measured values pooled from the literature.
Protocols differ between the studies behind these lines.
RET: Proto-oncogene tyrosine-protein kinase receptor Ret (RET, Homo sapiens, UniProt P07949)
RET V804M: Proto-oncogene tyrosine-protein kinase receptor Ret (RET, Homo sapiens, UniProt P07949, V804M)
RET M918T: Proto-oncogene tyrosine-protein kinase receptor Ret (RET, Homo sapiens, UniProt P07949, M918T)
RET V804L: Proto-oncogene tyrosine-protein kinase receptor Ret (RET, Homo sapiens, UniProt P07949, V804L)

With `COc1c(Cl)cccc1Nc1c(-c2ccncc2C#C[C@@]2(C)CCCN2C(=O)/C=C/CN(C)C)[nH]c2c1C(=O)NCC2` the remaining binding was 100% (RET; binding, competition with immobilised ligand; 3 µM).
The remaining binding of `Cc1ccc(-c2c(/C=C(\C#N)C(=O)NC(C)C)n(CCCO)c3ncnc(N)c23)cc1` is reported as 100% (RET V804M; cell-free assay, competition with immobilised ligand; 1 µM).
With `Cc1cc(NC(=O)[C@H](O)c2cc(F)cc(F)c2)ccc1-c1cnc(N)c(C(=O)NC(C)C)c1` the remaining binding was 75% (RET M918T; binding, competition with immobilised ligand; 10 µM).
With `Nc1ncc2c(n1)-c1c([nH]c3ccc(C4=CCOCC4)cc13)CCC2` the remaining binding was 100% (RET V804L; binding, competition with immobilised ligand; 1 µM).
With `CNC1C[S+]2CC[S+]3CC[S+](C1)[Ru-4]321([N]=C=S)[n]2c3ccc(OC)cc3c3c4c(c5cc(F)c[n+]1c5c32)C(=O)NC4=O` (centres unmarked) the remaining binding was 100% (RET M918T; KinomeScan; 0.1 µM; relative to: untreated).
`C=CC(=O)N1CCc2ccc(-n3c(=O)ccc4cnc5ccc(-c6cnn(C)c6)cc5c43)cc21` gave a remaining binding of 98% (RET M918T; KINOMEscan; 1 µM; relative to: DMSO control).
`CC(C)=CC1OC(C)(C)C2C=C3C(=O)C(Cl)=CC(O)C3C3C(O)C4OC4C(=O)C132` (centres unmarked) gave a remaining binding of 88% (RET M918T; cell-free assay, competition with immobilised ligand; 10 µM).
With `CCN1CCN(Cc2ccc(C(=O)Nc3ccc(C)c(NCc4cnc5[nH]ccc5c4OC)c3)cc2C(F)(F)F)CC1` the remaining binding was 0.25% (RET; binding, competition with immobilised ligand; 1 µM).
`CNC(=O)C1CCN(c2cc(C)c(F)cc2NC(=O)c2ccc(-c3cc(O)ccc3C)c(C)c2)CC1` gave a remaining binding of 98% (RET V804M; binding, competition with immobilised ligand; 1 µM).
With `Cc1cnc2nc1Nc1cccc(c1)COC/C=C/COCc1cc(ccc1OCCN1CCOCC1)N2` the remaining binding was 11% (RET V804M; binding; 0.1 µM).
With `C=CC(=O)N1CCCC(n2c(=O)c3ncccc3n(Cc3ccc(Oc4ccccc4)cc3)c2=O)C1` (centres unmarked) the remaining binding was 96% (RET V804L; cell-free assay, competition with immobilised ligand; 1 µM).
